Assay results of several laboratories.
Compare with care: the assays were run in different laboratories. ± marks the error that the study gave. Converted amounts (≈) assume the structure as drawn.

Substance	test	system	conditions	scale	endpoint	result
[2H]C([2H])([2H])Oc1cc2c(cc1OC([2H])([2H])[2H])C1CC(=O)C(CC(C)C)CN1CC2 (stereo not shown)	refers to: deuterated total (α+β)-HTBZ	healthy human volunteers, plasma	oral, 18 mg single dose, standard meal		dose-normalized AUC(0-inf)	21.9 ng·h/mL
OCCc1ccc(O)c(O)c1		male C57BL/6J mice, brain	oral, 200 mg/kg, 0 to 12 h, low-fat diet		AUC(0-t)	0.016 ± 0.001 nmol·min/g
CNC(=O)c1ccc(-c2cnc3ncc(Cc4ccc5ncccc5c4)n3n2)cc1F		human, mild hepatic impairment (Child-Pugh A), plasma	oral, 200 mg single dose		Cmax (geometric mean)	1260 ng/mL
Oc1ccc(/C=C/c2cc(O)cc(O)c2)cc1	in situ intestinal perfusion	Sprague-Dawley rat, jejunum	25 µg/mL, 120 min, pH 7.4		effective permeability	9.4367 ± 0.00021 ×10⁻⁶ cm/s
TFFYGGSRGRRNNFRTEEY-OH (C-acid)		peptide, male C57BL/6J mouse, brain	intravenous, 60 min, vascular blood washed out	baseline: injected dose	brain uptake	0.032 ± 0.02%
CC(C)OC(=O)[C@H](CCC(=O)C=[N+]=[N-])NC(=O)O[C@H](C)OC(=O)C(C)(C)C		mouse plasma	10 µM, 60 min, 37 °C		remaining compound	0%
COc1cc(Nc2ncc3c(n2)-c2ccc(Cl)cc2C(c2c(F)cccc2OC)=NC3)ccc1C(=O)O		human, plasma	oral, 40 mg twice daily, day 7, steady state, ECT		t1/2	19 h
CC(C)(C)c1ccc(-c2nc3n(c(=O)c2C#N)CCCS3)cn1		oocyte extracellular recording solution	pH 7.4, 22 °C, DMSO below 0.1%	higher not tested	highest soluble concentration	≥ 100 µM
C[C@]12CC[C@@H]3c4ccc(O)cc4CC[C@H]3[C@@H]1C[C@@H](O)[C@@H]2O	GC-MS	breast cancer women on NSAI, serum	vaginal, 0.03 mg daily, 0.5 h, day 28		median serum concentration	0 ng/mL
CCCC[C@@H]1NC(=O)[C@@H](NC(=O)[C@H](CCC(=O)O)NC(=O)CNC(=O)CN2CCN(CC(=O)O)CCN(CC(=O)O)CCN(CC(=O)O)CC2)CCCCNC(=O)C[C@@H](C(N)=O)NC(=O)[C@H](C(C)C)NC(=O)[C@@H]2CCCN2C(=O)[C@H](CCCNC(=N)N)NC(=O)CNC(=O)[C@H](Cc2c[nH]c3ccccc23)NC(=O)[C@H](CCCNC(=N)N)NC(=O)[C@@H](Cc2ccccc2)NC(=O)[C@H](Cc2c[nH]cn2)NC(=O)[C@H](CCC(=O)O)NC1=O [indium-111 labelled]		normal C57 mice, lung	intravenous, 0.037 MBq, 4 h		tissue uptake	0.05 ± 0.05 %ID/g
des-acyl ghrelin (human)		mouse, Ghsr knockout, cerebellum	intravenous, 10 min		brain/serum ratio	9.51 µL/g
CC(C)NC[C@@H](C(=O)N1CCN(c2ncnc3c2[C@H](C)C[C@H]3O)CC1)c1ccc(Cl)cc1		human, Healthy hepatic function (Child-Pugh), plasma	oral, 100 mg single dose, arithmetic mean		t1/2	49.8 h
acyl ghrelin (human)		mouse, Ghsr knockout, hypothalamus	intravenous, 10 min		brain/serum ratio	5.39 µL/g
CNc1[nH]c(=O)n(O)c(=O)c1C(=O)NCc1ccccc1	metabolic stability	human, liver microsomes			microsomal CLint	51 µL/min/mg
CCCC[C@H](NC(C)=O)C(=O)N[C@H]1CCC(=O)NC[C@@H](C(=O)N[C@@H](Cc2c[nH]c3ccccc23)C(N)=O)NC(=O)[C@H](CCCNC(=N)N)NC(=O)[C@@H](Cc2ccccc2)NC(=O)[C@H](Cc2c[nH]cn2)NC1=O		beagle dog, female, plasma	subcutaneous, 40.0 mg/kg daily, day 14		Tmax	0.38 h
CCCOc1ccc([C@H]2CNC(=O)N2c2ccc3[nH]cnc3c2)cc1		human volunteers fasted, plasma	oral solution, 200 mg single dose, day 1, geometric mean		apparent terminal half-life	3.16 h
CC(C)C[C@H](NC(=O)[C@H](CCCNC(=N)N)NC(=O)[C@H](CC(N)=O)NC(=O)[C@H](CC(=O)O)NC(=O)[C@H](CCCNC(=N)N)NC(=O)CNC(=O)CNC(=O)CNC(=S)Nc1ccc(C[C@H]2CN(CC(=O)O)CCN(CC(=O)O)CCN2CC(=O)O)cc1)C(=O)N[C@@H](CC(N)=O)C(=O)N[C@H](C(=O)NCC(=O)NCC(=O)N[C@H](C(=O)N[C@@H](Cc1ccc(O)cc1)C(=O)N[C@@H](Cc1ccccc1)C(=O)N[C@@H](CC(C)C)C(=O)N[C@H](C(=O)N[C@H](C(=O)N[C@@H](CCCNC(=N)N)C(=O)N[C@@H](CCC(N)=O)C(=O)O)[C@@H](C)O)[C@@H](C)O)[C@@H](C)O)C(C)C [fluorine-18 labelled]	radio-HPLC	mouse (HepG2 tumour-bearing), HepG2 tumour	intravenous, 5.55 MBq, 1 h		intact parent radiotracer	93 ± 2.98%
C#Cc1cccc(Nc2ncnc3cc(OCCOC)c(OCCOC)cc23)c1		human, plasma	oral, 150 mg once daily, steady state monotherapy		Cmin	1000 ng/mL
O=C(O)c1ccc([18F])nc1	PET imaging	mouse, intracranial BT-12 glioblastoma xenograft	iv, dose not given		tumour SUV	0.9 ± 0.1
CCCCOCCOc1ccc(-c2ccc3c(c2)/C=C(/C(=O)Nc2ccc([S@@+]([O-])Cc4cncn4CCC)cc2)CCCN3CC(C)C)cc1		human, controls matched to moderate impairment	oral, 150 mg		effective half-life	15 h

Substance	test	system	conditions	scale	endpoint	result
CNC(=O)c1cc(C(=O)NC)cc(-c2ccc(O[C@H]3O[C@H](CO)[C@@H](O)[C@H](O)[C@@H]3O)cc2)c1		mouse, urine	oral, urine level above biofilm IC50		effective oral dose	100 mg/kg
COc1c(C)c2c(c(O)c1C/C=C(\C)CCC(=O)O)C(=O)OC2	equilibrium dialysis	dogs, albumin H1/H1 and H2/H2, plasma	12.5 µM, 4 h, 37 °C		plasma protein binding	95.4 ± 1.1%
Oc1ccc(/C=C/c2ccc3cc4ccccc4cc3c2)cc1O		water	aggregation above range		linear absorbance range	≤ 5 µM
Cc1nc2cccc(OCC(C)(C)C(=O)NC(C)C)c2c(N)c1C(=O)O		Sprague-Dawley rat, male, plasma	oral gavage, 30 mg/kg, day 1		Cmax	90 ± 23.9 ng/mL
CS(=O)(=O)n1cc2c(n1)CN([C@H]1CO[C@H](c3cc(F)ccc3F)[C@@H](N)C1)C2		healthy Japanese men, fasted, plasma	oral, 25 mg single dose, 168 h		plasma concentration	20 nM
C[C@](N)(Cc1ccc(O)c(O)c1)C(=O)O	static gravimetric method	supercritical CO2, 851.7 kg/m3	5 h, 323 K, pressure 27 MPa		solubility	318 µg/mL (≈ 1510 µM)
Cc1cc(Nc2ncc(Cl)c(Nc3ccccc3S(=O)(=O)C(C)C)n2)c(OC(C)C)cc1C1CCNCC1	refers to: unbound drug	human, enhancing tumour over plasma	oral, 450 mg/day, 23 to 25 h after dose 10		Kp,uu	3.54
CCOc1ccc(Cc2cc([C@@H]3S[C@H](CO)[C@@H](O)[C@H](O)[C@H]3O)c(OC)cc2C)cc1		human, plasma	oral, 25 mg, single dose, fasted, healthy volunteers		AUC(0-inf)	8510 ng·h/mL
CCCCc1nc(Cl)c(CO)n1Cc1ccc(-c2ccccc2-c2nn[nH]n2)cc1	rapid equilibrium dialysis	pooled human plasma	4 h, added: cassette with erlotinib, Flx		fraction unbound	0.01
CC1=C2C[C@H]3[C@@H](CC[C@@H]4C[C@H](NS(C)(=O)=O)CC[C@@]43C)[C@@H]2CC[C@@]2(C1)O[C@@H]1C[C@H](C)CN[C@H]1[C@H]2C		patients, plasma	oral, 30 mg single, day -7, cycle 1		Tmax	6.08 h
colistin methanesulfonate		0.9% NaCl	above CMC		conversion to colistin	< 1%
Cn1c(-c2ccc(C(N)=O)cc2F)nnc1C(C)(C)Oc1c(F)cc(Cl)cc1F		young Japanese adults, plasma	oral, 10 mg single dose, day 1, high-dose multiple-dose study		Tmax range over subjects	1.5 to 4 h
COC(=O)c1ccc2c(c1)NC(=O)/C2=C(\Nc1ccc(N(C)C(=O)CN2CCN(C)CC2)cc1)c1ccccc1		human moderate liver impairment, plasma	oral, 150 mg twice daily, geometric mean		AUC(tau) steady state	970 ng·h/mL
CC(=O)N[C@@H](CCCNC(=N)N)C(=O)N[C@@H](C)C(=O)N[C@@H](CC(=O)O)C(=O)N[C@@H](C)C(=O)N[C@@H](CCCNC(=N)N)C(=O)N[C@@H](C)C(=O)N[C@@H](CC(=O)O)C(=O)N[C@@H](C)C(=O)N[C@@H](CCCNC(=N)N)C(=O)N[C@@H](C)C(=O)N[C@@H](CC(=O)O)C(=O)N[C@@H](C)C(=O)N[C@@H](CCCNC(=N)N)C(=O)N[C@@H](C)C(=O)N[C@@H](CC(=O)O)C(=O)N[C@@H](C)C(N)=O	rotational rheometry	2.5% w/v aqueous solution	shear rate range 1-1000 s^-1		viscosity	2510 ± 68.1 Pa·s
CC[C@H](C)[C@@H]1NC(=O)[C@H](Cc2ccc(O)cc2)NC(=O)[C@@H](N)CSSC[C@@H](C(=O)N2CCC[C@H]2C(=O)N[C@@H](CC(C)C)C(=O)NCC(N)=O)NC(=O)[C@H](CC(N)=O)NC(=O)[C@H](CCC(N)=O)NC1=O	microdialysis, radioimmunoassay	knock-out male mice lacking compound, amygdala extracellular fluid	intranasal, 12 µg, total area from zero		AUC(0-t)	266 ± 113 pg·30 min/sample
COc1cc(C(=O)N2CCC3(CC2)CC(=O)c2c(cnn2C(C)C)C3)cc(-c2ccc(C(=O)O)cc2)n1	refers to: AST	human	15 mg twice daily, 7 days		liver enzyme elevation	3.5 × ULN
O=C(Nc1nc2cccc(-c3ccc(CN4CCS(=O)(=O)CC4)cc3)n2n1)C1CC1		human male	oral, 300 mg once daily, steady state, mean		terminal half-life	10.9 h
O=C(c1nc2n(n1)[C@H](c1ccccc1)C[C@@H]2F)C1CC1		human, plasma	oral, 5 mg, single dose, fasted, healthy volunteers		AUC(0-inf)	1060 ng·h/mL
N=C(N)c1ccc(CNC(=O)[C@@H]2CCN2C(=O)[C@H](NCC(=O)O)C2CCCCC2)cc1		Wistar rats male, plasma	intravenous, 0.1 mg/kg, 15 min, 10 min after TF		plasma concentration	200 ± 25.8 ng/mL
CC[C@@H]1CN(C(=O)NCC(F)(F)F)C[C@@H]1c1cnc2cnc3[nH]ccc3n12		human, normal renal function, urine and plasma	oral, 15 mg single dose, extended release, fasted, arithmetic mean		renal clearance	93.3 mL/min

Some of these lines once more:
Substance	test	system	conditions	scale	endpoint	result
CCCC[C@@H]1NC(=O)[C@@H](NC(=O)[C@H](CCC(=O)O)NC(=O)CNC(=O)CN2CCN(CC(=O)O)CCN(CC(=O)O)CCN(CC(=O)O)CC2)CCCCNC(=O)C[C@@H](C(N)=O)NC(=O)[C@H](C(C)C)NC(=O)[C@@H]2CCCN2C(=O)[C@H](CCCNC(=N)N)NC(=O)CNC(=O)[C@H](Cc2c[nH]c3ccccc23)NC(=O)[C@H](CCCNC(=N)N)NC(=O)[C@@H](Cc2ccccc2)NC(=O)[C@H](Cc2c[nH]cn2)NC(=O)[C@H](CCC(=O)O)NC1=O [indium-111 labelled]		normal C57 mice, lung	intravenous, 0.037 MBq, 4 h		tissue uptake	0.05 ± 0.05 %ID/g
des-acyl ghrelin (human)		mouse, Ghsr knockout, cerebellum	intravenous, 10 min		brain/serum ratio	9.51 µL/g
CC(C)NC[C@@H](C(=O)N1CCN(c2ncnc3c2[C@H](C)C[C@H]3O)CC1)c1ccc(Cl)cc1		human, Healthy hepatic function (Child-Pugh), plasma	oral, 100 mg single dose, arithmetic mean		t1/2	49.8 h
